Measurements collected from several papers.
Each line is one published result; not all experiments were run side by side. “And” joins repeats or separate records; there may be more than shown. ± gives the spread as reported.
RIPK2: Receptor-interacting serine/threonine-protein kinase 2 (RIPK2, Homo sapiens, UniProt O43353)
ABCG2: Broad substrate specificity ATP-binding cassette transporter ABCG2 (ABCG2, Homo sapiens, UniProt Q9UNQ0)
CHRM1: Muscarinic acetylcholine receptor M1 (CHRM1, Homo sapiens, UniProt P11229)
CHRM5: Muscarinic acetylcholine receptor M5 (CHRM5, Homo sapiens, UniProt P08912)
ELANE: Neutrophil elastase (ELANE, Homo sapiens, UniProt P08246)

COc1ccc(-c2ccn(CC[C@](C)(C(=O)NO)S(C)(=O)=O)c(=O)c2)c(F)c1 gave an IC50 of 183 nM (UDP-3-O-acyl-N-acetylglucosamine deacetylase (lpxC, Acinetobacter baumannii, UniProt A3M9X5); enzyme activity, inhibitor).
C=CC(=O)N1CCC(c2cc(C(=O)O)n(C)n2)CC1 gave an IC50 of 22500 ± 4600 nM (Fosb/Jund, ΔFosB isoform (Mus musculus, UniProt P13346+P15066); ΔFOSB/JUND DNA binding, fluorescence polarization; 15 min, together with: TMR-cdk5 oligonucleotide).
Cc1cc(NC(=O)c2cccc(-n3cc(NC(=O)Nc4ccccc4Cl)cn3)c2)ccn1 has an IC50 of greater than 10000 nM (Mitogen-activated protein kinase 10, isoform alpha-1 (MAPK10, Homo sapiens, UniProt P53779, L144I); enzyme activity, inhibitor, HTRF; together with: 1.25 µM ATP).
For CN1CCc2cc(Nc3ncc(C(F)(F)F)c(NCc4cc[nH]n4)n3)ccc2C1, the IC50 was 31.4 nM (Serine/threonine-protein kinase MARK1 (MARK1, Homo sapiens, UniProt Q9P0L2); enzyme activity, inhibitor, FRET).
With COC(=O)C1C(C=NNCC(F)(F)F)=Cc2cc3c(cc2C1c1cc(OC)c(OC)c(OC)c1)OCO3 (centres unmarked) the IC50 was 2900 ± 300 nM (tubulin alpha/beta (Leishmania infantum, UniProt A0A381MCS3+A4HTR0); tubulin polymerization, inhibitor; 37 °C).
For C=CCC(=N)NCCC[C@H](N)C(=O)O, the IC50 was 1200 nM and ~1000 nM and 1000 to 2000 nM (Nitric oxide synthase 1 (Mus musculus, UniProt Q9Z0J4); NMDA-evoked cGMP accumulation; adult mouse hippocampal slices; 2 min, preincubation 25 min, together with: NMDA 100 µM, BAY 60-7550 1 µM).
For CC(=O)N[C@@H](Cc1c[nH]c2ccccc12)C(=O)N[C@@H](Cc1c[nH]c2ccccc12)C(=O)N[C@@H](Cc1c[nH]c2ccccc12)C(=O)N[C@@H](Cc1c[nH]c2ccccc12)C(=O)N[C@@H](Cc1c[nH]c2ccccc12)C(=O)N[C@@H](Cc1c[nH]c2ccccc12)C(=O)N[C@@H](Cc1c[nH]c2ccccc12)C(=O)NCCCC[C@@H]1NC(=O)[C@H](CCCNC(=N)N)NC(=O)[C@H](CCCNC(=N)N)NC(=O)[C@H](CCCNC(=N)N)NC(=O)[C@H](CCCNC(=N)N)NC(=O)[C@H](CCCNC(=N)N)NC1=O, the IC50 was 2340 nM (Serine/threonine-protein kinase B-raf (BRAF, Homo sapiens, UniProt P15056); enzyme activity, inhibitor).
CC[C@H](C)[C@@H]1NC(=O)[C@H](Cc2c[nH]c3ccccc23)NC(=O)CNC(=O)[C@@H](C)NC(=O)c2cc3cc(c2)C(=O)NC[C@H](NC(=O)[C@H](Cc2ccc(O)cc2)NC1=O)C(=O)N[C@@H](Cc1ccccc1)C(=O)N[C@@H](Cc1ccc2ccccc2c1)C(=O)N[C@@H](CCCNC(=N)N)C(=O)N[C@H](CCCNC(=N)N)C(=O)N[C@@H](CCCNC(=N)N)C(=O)N[C@H](C(=O)NCCC(=O)NCCC(=O)N[C@@H](CCCCN)C(N)=O)CNC3=O gave an IC50 of 2300 ± 300 nM (NF-kappa-B essential modulator, with IKK-beta (IKBKG, Homo sapiens, UniProt Q9Y6K9); inhibitor, HTRF).
For N#Cc1ccc(/C=C2\SC(=S)NC2=O)cc1, the IC50 was 86000 nM (Phosphatidylinositol 4,5-bisphosphate 3-kinase catalytic subunit alpha isoform (PIK3CA, Homo sapiens, UniProt P42336); enzyme activity, inhibitor, radiometric).
COC(=O)CNC(=O)c1ccc(NC(=O)c2[nH]c(C)c(Cl)c2Cl)c(N2CCN(C(=O)OC(C)(C)C)CC2)c1 has an IC50 of 4080 nM (DNA gyrase subunit B (gyrB, Escherichia coli, UniProt P0AES6); DNA supercoiling, inhibitor).
The IC50 of O=C(NC1CC1)N1CC=C(c2cc3c(Nc4cc5ncsc5cc4F)ncnc3s2)CC1 is reported as 12 nM (RIPK2; enzyme activity, inhibitor).
The IC50 of O=C(O[C@@H]1Cc2c(O)cc(O)cc2O[C@@H]1c1cc(O)c(O)c(O)c1)c1cc(O)c(O)c(O)c1 is reported as greater than 200000 nM (Genome polyprotein, protease (Hepatitis C virus genotype 1a, UniProt P27958); enzyme activity, inhibitor, fluorescence).
For O=C(O)c1c(O)cccc1CC(OC1OC(CO)C(O)C(O)C1O)c1ccc(O)cc1 (centres unmarked), the IC50 was greater than 100000 nM (Tyrosine-protein phosphatase non-receptor type 1 (PTPN1, Homo sapiens, UniProt P18031); enzyme activity, inhibitor, absorbance).
The IC50 of O=C1NC(=O)c2c1c1c3cc(Cl)ccc3[nH]c1c1[nH]c3ccc(Cl)cc3c21 is reported as roughly 100000 nM (ABCG2; Hoechst accumulation, inhibitor; MDCK II cells transfected with BCRP).
For CN1CCC=C(c2nsnc2OCCCN2CCN(CCCCC3CCN(CC(=O)N4c5ccccc5NC(=O)c5ccccc54)CC3)CC2)C1, the Ki was 1.45 nM (CHRM1; ligand displacement, radioligand).
CN1C(=O)/C(=C2\Nc3ccccc3C2=O)c2cccc(Br)c21 has an IC50 of greater than 10000 nM (Dual specificity tyrosine-phosphorylation-regulated kinase 1A (Dyrk1a, Rattus norvegicus, UniProt Q63470)).
CC[C@H]1[C@@H](O)[C@@H]2[C@H](CC[C@]3(C)[C@@H]([C@H](C)CCOS(=O)(=O)[O-])CC[C@@H]23)[C@@]2(C)CC[C@@H](O)C[C@@H]12.[Na+] has a plasma AST of 447 ± 38.8 U/L (ob/ob NASH mice, plasma; oral, 3 mg/kg once daily, 8 wk).
O=c1c2ccccc2sn1-c1ccccc1 gave an IC50 of 1510 nM (Histone deacetylase 7 (HDAC7, Homo sapiens, UniProt Q8WUI4); enzyme activity, inhibitor).
With Cc1cc(N2CC[C@@](C#N)(C3CC3)C2=O)cc(NC(=O)Cc2ccccc2)n1 the IC50 was 45.6 nM (Bifunctional glutamate/proline--tRNA ligase (EPRS1, Homo sapiens, UniProt P07814); enzyme activity, inhibitor, absorbance).
The IC50 of N=C(N)NCCCC(N)C(=O)NCC(=O)NC(CCCCNC(=N)NCCCSCC1OC(n2cnc3c(N)ncnc32)C(O)C1O)C(N)=O (centres unmarked) is reported as greater than 100000 nM (Histone-lysine N-methyltransferase EHMT2 (EHMT2, Homo sapiens, UniProt Q96KQ7); enzyme activity, inhibitor, fluorescence).
N=C(N)NCCC[C@H](NC(=O)[C@H](CC(=O)O)NC(=O)[C@@H]1CSCCC(=O)NCC(=O)N[C@@H](Cc2c[nH]cn2)C(=O)N[C@H](Cc2ccccc2)C(=O)N[C@@H](CCCNC(=N)N)C(=O)N[C@@H](Cc2c[nH]c3ccccc23)C(=O)N1)C(=O)N[C@@H](Cc1ccccc1)C(=O)NCC(N)=O has an IC50 of 330 nM (Melanocyte-stimulating hormone receptor (MC1R, Homo sapiens, UniProt Q01726); ligand displacement, radioligand).
With Nc1ccc(Oc2c(F)c(F)c(Oc3ccc(N)cc3)c(F)c2F)cc1 the IC50 was 810 nM (Estrogen receptor beta (ESR2, Homo sapiens, UniProt Q92731); coactivator recruitment, antagonist).
The IC50 of CCNC(=O)[C@H]1O[C@@H](n2cnc3c(NCCCCNS(=O)(=O)c4cccc5c(N(C)C)cccc45)ncnc32)[C@H](O)[C@@H]1O is reported as greater than 100000 nM (Adenosine receptor A1 (ADORA1, Homo sapiens, UniProt P30542); ligand displacement in cells, radioligand).
The IC50 of Cc1ccc(NC(=O)NCc2ccc3c(c2)CN(C2CCC(=O)NC2=O)C3=O)cc1Cl (centres unmarked) is reported as 200 nM (Protein cereblon (CRBN, Homo sapiens, UniProt Q96SW2); ligand displacement, TR-FRET).
CCCCCCOc1ccc(C(=O)OCC[N+]2(C)CC=CCC2)cc1 (centres unmarked) has a Kb of 49 nM (CHRM5; inositol phosphate accumulation, antagonist, Schild analysis; CHO; together with: carbachol).
For CC(C)C(=O)NC1CC=C(c2cc3c(Nc4cc5ncsc5cc4F)ncnc3s2)CC1 (racemic), the IC50 was 12 nM (RIPK2; enzyme activity, inhibitor).
The IC50 of CC1OC(Oc2c(-c3ccc(O)cc3)oc3cc(O)cc(O)c3c2=O)C(OC(=O)C=Cc2ccc(O)cc2)C(O)C1OC(=O)C=Cc1ccc(O)cc1 (centres unmarked) is reported as greater than 100000 nM (C-C chemokine receptor type 1 (CCR1, Homo sapiens, UniProt P32246); calcium flux, antagonist; 293FT GCaMP6 transfected).
COc1ccc([C@@H](C#N)N2CCN(C(=O)c3nn(-c4ccccc4)c(=O)c4ccccc34)CC2)cc1 has an IC50 of 906 nM (B- and T-lymphocyte attenuator, with HVEM (BTLA, Homo sapiens, UniProt Q7Z6A9); BTLA-HVEM binding, inhibitor, competitive ELISA).
The IC50 of COc1ncnc(C2CC2)c1-c1ncc2c(n1)n(Cc1ccc(-c3nc(C(F)(F)F)cn3C)cc1)c(=N)n2CC(F)(F)F is reported as 98.5 nM (Ubiquitin carboxyl-terminal hydrolase 1 (USP1, Homo sapiens, UniProt O94782, G670A/G671A); enzyme activity, inhibitor).
For CCCCOc1ccc(C(=O)OCC[N+]2(C)CC=CCC2)cc1 (centres unmarked), the Kb was 1620 nM (CHRM5; inositol phosphate accumulation, antagonist, Schild analysis; CHO; together with: carbachol).
For COc1cc(/C=C/C(=O)c2ccc3ccccc3c2)ccc1OCc1ccccc1, the IC50 was 230 nM (ABCG2; transporter efflux, inhibitor, flow cytometry; HEK293; 30 min).
Cc1cc(-c2ccc(/N=N/c3ccc4c(S(=O)(=O)O)cc(S(=O)(=O)O)c(N)c4c3O)c(C)c2)ccc1/N=N/c1ccc2c(S(=O)(=O)O)cc(S(=O)(=O)O)c(N)c2c1O gave an IC50 of 540 nM (ELANE; enzyme activity, inhibitor, absorbance; pH 7.4).
COc1ccc(C(=O)/C=C(\O)C(F)(F)C(F)(F)F)c(O)c1 has an IC50 of 90 ± 10 nM (Formate-nitrite transporter (Plasmodium vivax, UniProt A0A1G4GWI6)).
CCc1nc2nc(C)c(N=S(=O)(O)c3ccc(CC(C)C)cc3)c(O)n2n1 has an IC50 of 12.4 nM (P2Y purinoceptor 14 (P2RY14, Homo sapiens, UniProt Q15391); antagonist).
For Cc1ccc(S(=O)(=O)N/N=C/c2ccsc2B(O)O)cc1, the IC50 was 12000 nM (ELANE; enzyme activity, inhibitor, fluorescence).
O=C1Nc2ccccc2N(C(=O)CN2CCC(CCCCNCCCCC3CCN(CCCN4C(=O)CCc5ccccc54)CC3)CC2)c2ccccc21 gave a Ki of 3.98 nM (CHRM1; ligand displacement, radioligand).
O=C1C2=C(Nc3ccccc3SC2C2CCCCC2)c2ccccc21 (racemic) has an IC50 of 5 ± 1.6 nM (MT-CYB, bc1 complex (Plasmodium falciparum, UniProt Q02768); enzyme activity, inhibitor; purified mitochondrial fractions).
The IC50 of C=CC(=O)N1CCc2ccc(-n3c(=O)ccc4cnc5ccc(-c6cnn(C)c6)cc5c43)cc21 is reported as greater than 10000 nM (Tyrosine-protein kinase Fyn (FYN, Homo sapiens, UniProt P06241); enzyme activity, inhibitor).

Excerpt of the above:
The IC50 of Cc1ccc(NC(=O)NCc2ccc3c(c2)CN(C2CCC(=O)NC2=O)C3=O)cc1Cl (centres unmarked) is reported as 200 nM (Protein cereblon (CRBN, Homo sapiens, UniProt Q96SW2); ligand displacement, TR-FRET).
CCCCCCOc1ccc(C(=O)OCC[N+]2(C)CC=CCC2)cc1 (centres unmarked) has a Kb of 49 nM (CHRM5; inositol phosphate accumulation, antagonist, Schild analysis; CHO; together with: carbachol).
For CC(C)C(=O)NC1CC=C(c2cc3c(Nc4cc5ncsc5cc4F)ncnc3s2)CC1 (racemic), the IC50 was 12 nM (RIPK2; enzyme activity, inhibitor).
The IC50 of CC1OC(Oc2c(-c3ccc(O)cc3)oc3cc(O)cc(O)c3c2=O)C(OC(=O)C=Cc2ccc(O)cc2)C(O)C1OC(=O)C=Cc1ccc(O)cc1 (centres unmarked) is reported as greater than 100000 nM (C-C chemokine receptor type 1 (CCR1, Homo sapiens, UniProt P32246); calcium flux, antagonist; 293FT GCaMP6 transfected).
